Published values of several laboratories.
Numbered parts are unrelated; each lists some results of a single study. “And” joins repeats or separate records; there may be more than shown.
Chain of UniProt P20309 (whole entry, looked up): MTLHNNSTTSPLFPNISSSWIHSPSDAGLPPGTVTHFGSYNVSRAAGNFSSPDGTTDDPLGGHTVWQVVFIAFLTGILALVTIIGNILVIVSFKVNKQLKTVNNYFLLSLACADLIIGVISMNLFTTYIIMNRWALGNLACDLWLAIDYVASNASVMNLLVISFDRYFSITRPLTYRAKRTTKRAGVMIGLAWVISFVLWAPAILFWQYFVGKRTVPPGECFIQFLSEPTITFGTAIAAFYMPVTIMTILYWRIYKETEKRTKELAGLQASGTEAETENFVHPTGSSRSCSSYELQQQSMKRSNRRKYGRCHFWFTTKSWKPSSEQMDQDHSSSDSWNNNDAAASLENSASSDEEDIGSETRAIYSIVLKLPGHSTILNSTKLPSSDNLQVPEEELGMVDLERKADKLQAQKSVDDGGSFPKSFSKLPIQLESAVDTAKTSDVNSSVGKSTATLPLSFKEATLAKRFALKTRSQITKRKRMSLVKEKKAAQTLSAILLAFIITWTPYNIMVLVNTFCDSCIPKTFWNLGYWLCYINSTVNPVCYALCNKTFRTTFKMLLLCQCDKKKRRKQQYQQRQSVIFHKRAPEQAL

Series 1
Target: Bromodomain-containing protein 4, BD1 (BRD4, Homo sapiens, UniProt O60885)
Tested at: 50 µM
| Compound | inhibition |
| --- | --- |
| CC(C)(C)Cn1c(N)nc2ccc(-c3[nH]c(C(C)(C)C)nc3-c3ccc(F)cc3)nc21 | 72.7% |
| CNC(=O)c1cc(Oc2ccc(NC(=O)Nc3cc(C(C)(C)C)nn3-c3ccc4ncccc4c3)c(F)c2)ccn1 | 24.1% |
| CCn1c(=O)c(-c2cc[nH]n2)cc2c(C)nc(N)nc21 | 10.2% |
| COc1cc(OC)c(/C=C/S(=O)(=O)Cc2ccc(OC)c(NCC(=O)O)c2)c(OC)c1 | 9.05% |
| COC(=O)c1ccc2c(c1)NC(=O)/C2=C(\Nc1ccc(N(C)C(=O)CN2CCN(C)CC2)cc1)c1ccccc1 | 18.8% |
| CCCS(=O)(=O)Nc1ccc(F)c(C(=O)c2c[nH]c3ncc(-c4ccc(Cl)cc4)cc23)c1F | 17.6% |
| CC(C)(C)c1nc(-c2cccc(NS(=O)(=O)c3c(F)cccc3F)c2F)c(-c2ccnc(N)n2)s1 | 15.3% |
| C[C@H](Nc1ncnc2nc[nH]c12)c1cc2cccc(Cl)c2c(=O)n1-c1ccccc1 | 5.45% |

Series 2
Target: Calcium/calmodulin-dependent protein kinase type II subunit alpha (CAMK2A, Homo sapiens, UniProt Q9UQM7)
Chain of UniProt Q9UQM7 (whole entry, looked up): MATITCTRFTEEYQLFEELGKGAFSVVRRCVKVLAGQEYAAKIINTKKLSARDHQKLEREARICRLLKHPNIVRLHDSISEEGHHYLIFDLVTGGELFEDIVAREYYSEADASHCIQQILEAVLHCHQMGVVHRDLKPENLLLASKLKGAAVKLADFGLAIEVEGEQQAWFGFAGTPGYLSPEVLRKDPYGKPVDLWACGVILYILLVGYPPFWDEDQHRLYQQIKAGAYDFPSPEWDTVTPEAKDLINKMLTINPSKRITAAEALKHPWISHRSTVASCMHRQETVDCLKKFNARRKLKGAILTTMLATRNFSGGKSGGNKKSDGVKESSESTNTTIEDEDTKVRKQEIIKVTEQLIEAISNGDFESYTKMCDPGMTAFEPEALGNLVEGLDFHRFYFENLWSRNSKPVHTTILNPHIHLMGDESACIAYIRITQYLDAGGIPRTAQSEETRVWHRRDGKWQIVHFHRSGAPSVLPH
Read-out: enzyme activity
Mode: inhibitor
Tested at: 10 µM
| Structure (SMILES) | inhibition |
| --- | --- |
| O=C(/C=C/c1ccc(O)cc1)c1ccccc1 | 78% |
| Nc1ncnc(N[C@@H]2O[C@H](CO)[C@@H](O)[C@H]2O)c1[N+](=O)[O-] | -26% |
| CC(C)=CCc1c(O[C@@H]2O[C@H](CO)[C@@H](O)[C@H](O)[C@H]2O)cc(O)c2c(=O)c(O[C@@H]3O[C@@H](C)[C@H](O)[C@@H](O)[C@H]3O)c(-c3ccc(O)cc3)oc12 | -4% |
| COC(=O)C=Cc1ccc(O)cc1 | -19% |
| COc1cc(/C=C/C(=O)N2CCC=CC2=O)cc(OC)c1OC | 3% |
| CC=CC1=C(C(=O)O)N2C(=O)[C@@H](NC(=O)[C@H](N)c3ccc(O)cc3)[C@H]2SC1 (mixture of isomers) | -6% |
| Nc1ncnc2c1ncn2[C@@H]1O[C@H](COP(=O)(O)O)[C@@H](O)[C@H]1O | -0.07% and 0.06% |
| O=C(O)c1ccc2ccccc2c1O | -5% |

Series 3
Cell line: HaCaT
Tested at: 100 µM
Time: 36 h
| SMILES | viability [%] |
| --- | --- |
| C=CCOC(Cn1ccnc1)c1ccc(Cl)cc1Cl (stereo not shown) | 78.4 |
| C=CC(N)CCC(=O)O (stereo not shown) | 92.3 |
| NCCCC[C@H](N[C@@H](CCc1ccccc1)C(=O)O)C(=O)N1CCC[C@H]1C(=O)O | 85.1 |
| CC(=O)OCC(=O)[C@@]12N=C(C)O[C@@H]1C[C@H]1[C@@H]3CCC4=CC(=O)C=C[C@]4(C)[C@H]3[C@@H](O)C[C@@]12C | 92.2 |
| Cc1cc(/C=C/C#N)cc(C)c1Nc1ccnc(Nc2ccc(C#N)cc2)n1 | 34 |
| O=C(O)CC(O)(CC(=O)O)C(=O)O | 85.1 |
| Cc1cc2nc3c(=O)[nH]c(=O)nc-3n(C[C@H](O)[C@H](O)[C@H](O)CO)c2cc1C | 95.7 |
| Cc1c(Nc2ncccc2C(=O)O)cccc1C(F)(F)F | 67.2 |

Other studies, line by line
| SMILES | target | assay | setting | quantity | result |
| --- | --- | --- | --- | --- | --- |
| CCC(=O)N[C@@H]1CC[C@H](C(=O)N(C)c2ccc(-c3nc4ccccc4o3)cc2)C1 | Muscarinic acetylcholine receptor M3 (CHRM3, Homo sapiens, UniProt P20309) | binding, radioligand binding | 10 µM | inhibition | -11.2% |
